Results collected from several papers.
Numbered parts are unrelated; each lists some results of a single study.
UniProt P04629, sequence (whole entry, looked up): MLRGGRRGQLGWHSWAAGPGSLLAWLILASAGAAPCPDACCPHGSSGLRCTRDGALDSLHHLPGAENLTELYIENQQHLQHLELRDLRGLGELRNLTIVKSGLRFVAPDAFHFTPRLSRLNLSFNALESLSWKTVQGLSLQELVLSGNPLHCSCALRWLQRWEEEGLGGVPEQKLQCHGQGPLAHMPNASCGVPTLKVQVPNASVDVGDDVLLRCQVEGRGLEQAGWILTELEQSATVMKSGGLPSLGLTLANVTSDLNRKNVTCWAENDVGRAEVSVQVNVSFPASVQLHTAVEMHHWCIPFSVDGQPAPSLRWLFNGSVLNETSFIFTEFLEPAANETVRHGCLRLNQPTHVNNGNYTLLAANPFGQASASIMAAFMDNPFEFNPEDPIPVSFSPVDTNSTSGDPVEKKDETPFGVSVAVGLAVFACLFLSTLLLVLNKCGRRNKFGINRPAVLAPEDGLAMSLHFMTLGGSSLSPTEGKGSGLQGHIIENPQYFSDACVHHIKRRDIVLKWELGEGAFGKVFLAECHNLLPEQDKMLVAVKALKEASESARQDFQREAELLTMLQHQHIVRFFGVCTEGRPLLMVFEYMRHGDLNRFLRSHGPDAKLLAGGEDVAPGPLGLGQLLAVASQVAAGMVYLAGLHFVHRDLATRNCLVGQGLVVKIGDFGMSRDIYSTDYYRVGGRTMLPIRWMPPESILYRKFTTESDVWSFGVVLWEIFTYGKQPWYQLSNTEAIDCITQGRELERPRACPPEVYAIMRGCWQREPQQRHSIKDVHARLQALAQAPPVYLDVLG
UniProt P42336, sequence (whole entry, unmodified, looked up): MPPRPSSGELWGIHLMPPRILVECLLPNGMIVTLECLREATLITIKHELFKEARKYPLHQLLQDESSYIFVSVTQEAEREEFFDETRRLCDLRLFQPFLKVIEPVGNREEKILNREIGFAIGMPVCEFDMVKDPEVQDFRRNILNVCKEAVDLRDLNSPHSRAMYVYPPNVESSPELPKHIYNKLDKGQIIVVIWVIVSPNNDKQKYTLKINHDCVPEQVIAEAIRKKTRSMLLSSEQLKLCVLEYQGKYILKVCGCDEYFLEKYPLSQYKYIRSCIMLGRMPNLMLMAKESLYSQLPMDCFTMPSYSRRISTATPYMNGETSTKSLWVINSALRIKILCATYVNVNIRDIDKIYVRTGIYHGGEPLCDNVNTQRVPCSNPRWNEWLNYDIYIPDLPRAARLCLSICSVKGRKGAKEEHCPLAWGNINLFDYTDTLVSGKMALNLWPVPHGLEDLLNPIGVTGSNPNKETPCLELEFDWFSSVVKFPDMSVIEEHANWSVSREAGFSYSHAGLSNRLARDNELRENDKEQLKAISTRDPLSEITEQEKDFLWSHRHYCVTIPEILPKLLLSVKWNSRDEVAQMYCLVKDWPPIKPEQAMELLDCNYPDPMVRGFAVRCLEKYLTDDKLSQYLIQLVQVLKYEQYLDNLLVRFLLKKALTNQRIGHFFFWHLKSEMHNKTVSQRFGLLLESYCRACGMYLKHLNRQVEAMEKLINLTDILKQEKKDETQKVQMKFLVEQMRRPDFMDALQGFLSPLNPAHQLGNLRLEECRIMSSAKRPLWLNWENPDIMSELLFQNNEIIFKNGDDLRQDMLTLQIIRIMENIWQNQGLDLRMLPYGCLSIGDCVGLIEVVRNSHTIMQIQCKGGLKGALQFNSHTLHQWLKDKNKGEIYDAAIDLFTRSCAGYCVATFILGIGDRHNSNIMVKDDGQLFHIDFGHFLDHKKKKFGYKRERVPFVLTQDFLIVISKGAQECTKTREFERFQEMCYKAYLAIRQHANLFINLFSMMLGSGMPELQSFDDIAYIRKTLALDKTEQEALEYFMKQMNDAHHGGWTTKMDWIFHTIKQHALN
UniProt Q13164, sequence (whole entry, looked up): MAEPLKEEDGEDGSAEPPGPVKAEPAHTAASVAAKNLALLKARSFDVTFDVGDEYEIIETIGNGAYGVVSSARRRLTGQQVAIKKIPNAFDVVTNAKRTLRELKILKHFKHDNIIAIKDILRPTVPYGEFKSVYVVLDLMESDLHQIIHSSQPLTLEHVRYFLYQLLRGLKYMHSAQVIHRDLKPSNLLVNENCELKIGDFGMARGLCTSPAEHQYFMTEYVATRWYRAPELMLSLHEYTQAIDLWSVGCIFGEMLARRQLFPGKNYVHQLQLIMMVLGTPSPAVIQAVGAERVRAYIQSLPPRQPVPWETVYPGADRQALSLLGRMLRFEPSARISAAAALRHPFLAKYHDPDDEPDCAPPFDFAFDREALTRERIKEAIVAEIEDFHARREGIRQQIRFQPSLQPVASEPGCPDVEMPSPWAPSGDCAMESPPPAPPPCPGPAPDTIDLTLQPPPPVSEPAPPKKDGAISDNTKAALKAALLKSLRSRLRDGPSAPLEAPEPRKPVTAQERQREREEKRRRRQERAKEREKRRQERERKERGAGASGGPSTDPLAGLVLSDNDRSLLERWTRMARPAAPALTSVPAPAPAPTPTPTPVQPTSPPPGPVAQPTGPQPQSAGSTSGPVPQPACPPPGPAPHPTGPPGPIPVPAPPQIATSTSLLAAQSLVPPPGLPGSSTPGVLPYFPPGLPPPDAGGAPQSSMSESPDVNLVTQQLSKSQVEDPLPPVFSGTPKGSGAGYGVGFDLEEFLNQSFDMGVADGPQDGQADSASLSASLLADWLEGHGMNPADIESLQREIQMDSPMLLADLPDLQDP

Series 1 — read-out: cell-free assay; method: competition with immobilised ligand; concentration: 1 µM; measurement: remaining binding
SMILES: CO[C@H]1CC[C@H](CNc2ccc(S(=O)(=O)NC(=O)c3ccc(N4CCN(CC5=C(c6ccc(Cl)cc6)CC(C)(C)CC5)CC4)cc3Oc3cnc4[nH]ccc4c3)cc2[N+](=O)[O-])CC1
Phosphatidylinositol 4,5-bisphosphate 3-kinase catalytic subunit alpha isoform (PIK3CA, Homo sapiens, UniProt P42336, C420R): 75%
Mitogen-activated protein kinase 7 (MAPK7, Homo sapiens, UniProt Q13164): 88%
High affinity nerve growth factor receptor (NTRK1, Homo sapiens, UniProt P04629): 100%

Series 2 — method: aptamer microarray, sandwich; form: DNA with 2'F-ANA; medium: in vitro; concentration: 200 nM; with: Cy3 exosite-II aptamer, 400 nM; reading: higher = stronger binding; measurement: mean fluorescence intensity; strand: GGTTGGTGTGGTTGG
Target: Prothrombin, mature alpha-thrombin (F2, Homo sapiens, UniProt P00734)
Setting: whole 15-mer aptamer, many near background
2'F-ANA at 1 3 8 12: 579 a.u.
2'F-ANA at 3 7 9 11 12 13 15: 1160 a.u.
2'F-ANA at 3 5 7 9 10 11 13 14 15: 69 a.u.
2'F-ANA at 1 2 5 6 7 8 9 10 11 14 15: 46.8 a.u.
2'F-ANA at 3 4 7 10 11 12 14: 249 a.u.
2'F-ANA at 2 3 5 6 7 14 15: 49.1 a.u.
2'F-ANA at 1 2 4 6 7 14 15: 54 a.u.
2'F-ANA at 1 4 8 12 13 14 15: 57.6 a.u.

Series 3 — read-out: enzyme activity; action: inhibitor; concentration: 0.5 µM; relative to: control; measurement: remaining activity
Target: Tyrosine-protein kinase ZAP-70 (ZAP70, Homo sapiens, UniProt P43403)
UniProt P43403, sequence (whole entry, looked up): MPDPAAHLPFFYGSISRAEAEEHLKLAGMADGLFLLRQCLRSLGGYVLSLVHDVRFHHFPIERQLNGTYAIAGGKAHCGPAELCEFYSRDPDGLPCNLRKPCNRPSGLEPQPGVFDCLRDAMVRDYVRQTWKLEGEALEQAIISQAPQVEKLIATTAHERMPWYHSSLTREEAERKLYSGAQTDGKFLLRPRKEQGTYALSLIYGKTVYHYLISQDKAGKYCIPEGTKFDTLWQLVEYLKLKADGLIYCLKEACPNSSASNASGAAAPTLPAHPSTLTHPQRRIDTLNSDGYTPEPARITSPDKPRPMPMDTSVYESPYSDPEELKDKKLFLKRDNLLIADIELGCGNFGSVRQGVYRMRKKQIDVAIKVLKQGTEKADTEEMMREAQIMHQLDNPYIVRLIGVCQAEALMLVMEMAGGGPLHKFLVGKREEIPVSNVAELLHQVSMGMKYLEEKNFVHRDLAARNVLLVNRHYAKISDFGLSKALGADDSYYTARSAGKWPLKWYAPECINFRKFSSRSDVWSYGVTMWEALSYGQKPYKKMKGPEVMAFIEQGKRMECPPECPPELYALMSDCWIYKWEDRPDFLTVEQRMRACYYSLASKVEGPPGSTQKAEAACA
O=c1c(-c2ccc(F)cc2)c(-c2ccncc2)[nH]n1-c1ccc(Cl)cc1: 108%
O=C1c2ccccc2-c2nc3nnnn3nc21: 68.2%
NC(=O)c1cccc(-c2cc(Nc3ccc(OC(F)(F)F)cc3)ncn2)c1: 97.1%
Clc1ccc(Nc2nnc(Cc3ccncc3)c3ccccc23)cc1: 96.6%
FC(F)(F)c1ccc(/C=C/c2nc(COc3ccc(CCCCn4ccnn4)cc3)co2)cc1: 115%
CC(C)(C)c1nc2c3cc[nH]c(=O)c3c3cc(F)ccc3c2[nH]1: 88.9%
N#CC(c1ccnc(NCCc2cccnc2)n1)c1nc2ccccc2s1 (centres unmarked): 94.5%

Further values, each from its own experiment — partner: HNRNPA1L2 (Homo sapiens, UniProt Q32P51); method: cross-linking MS; setting: hits only
HNRNPA2B1 (Homo sapiens, UniProt P22626)  interaction screen: cross-linked
HNRNPA3 (Homo sapiens, UniProt P51991)  interaction screen: cross-linked
